Measured values collected from several papers.
Numbered parts are unrelated; each lists some results of a single study. Changes are numbered by the printed parent chain.

Sample 1 — technique: universal PBM; molecule type: double-stranded DNA, one strand shown; medium: in vitro; tested at: not given; direction: higher = stronger binding
Target: Sal-like protein 4, full length isoform B (SALL4, Homo sapiens, UniProt Q9UJQ4-2, residues 1-616)
Notes: 8-mer, flanks averaged, mean of replicates
For `TACCGTCA`, the E-score was -0.108.
The E-score of `AACGACTT` is reported as -0.0723.
With `AAAGAGAC` the E-score was -0.00666.
For `CAGGTCGC`, the E-score was -0.0818.
`CAAAGCTG` has an E-score of 0.0558.
For `AACCGGAA`, the E-score was -0.135.
`GCAGCCTA` has an E-score of -0.025.
The E-score of `ATCTAGAA` is reported as 0.15.

Sample 2 — technique: RNAcompete; molecule type: RNA; medium: in vitro; tested at: 20 nM; notes: 7-mer, probes averaged, single round; reference: mean of 7-mers; direction: higher = stronger binding
Target: PABPC1L2, full length, GST fusion (mouse, UniProt A0ABA7IW68)
Target sequence (chain): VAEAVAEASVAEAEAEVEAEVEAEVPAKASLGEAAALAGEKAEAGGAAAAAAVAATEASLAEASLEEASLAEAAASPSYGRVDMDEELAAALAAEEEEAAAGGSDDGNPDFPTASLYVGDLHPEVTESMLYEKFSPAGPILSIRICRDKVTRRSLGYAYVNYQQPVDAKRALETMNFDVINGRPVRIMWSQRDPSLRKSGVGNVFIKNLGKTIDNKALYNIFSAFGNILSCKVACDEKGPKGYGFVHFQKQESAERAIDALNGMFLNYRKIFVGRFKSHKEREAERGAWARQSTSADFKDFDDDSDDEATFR
`UAUGAUG` has a 7-mer Z-score of 0.0605.
The 7-mer Z-score of `CUCAGGG` is reported as -0.0101.
`AGGAUGA` gave a 7-mer Z-score of -0.115.
The 7-mer Z-score of `UGGGGUU` is reported as -0.0645.
`GCUUCCU` has a 7-mer Z-score of -0.258.
The 7-mer Z-score of `AAAGUUG` is reported as 1.43.
The 7-mer Z-score of `CUAAAGC` is reported as 0.173.
With `ACACGGU` the 7-mer Z-score was -0.0047.

Mixed results
P1: viral docking peptide; KGVKRKLFAEDSS; partner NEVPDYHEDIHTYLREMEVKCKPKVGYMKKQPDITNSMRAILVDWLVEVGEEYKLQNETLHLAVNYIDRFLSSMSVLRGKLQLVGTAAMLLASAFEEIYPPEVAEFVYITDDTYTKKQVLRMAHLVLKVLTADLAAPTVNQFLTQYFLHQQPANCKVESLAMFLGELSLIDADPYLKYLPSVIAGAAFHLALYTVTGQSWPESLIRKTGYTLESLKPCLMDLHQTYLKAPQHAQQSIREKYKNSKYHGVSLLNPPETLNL
Under “normalised enrichment score”, `P1 K4I` is recorded as 5.41 (CCNA2, cyclin fold, Cln2 fusion (human); yeast growth competition, sequencing; yeast; strong parent motif; reference: not given, higher = stronger binding).
`NIPSNAP2 (Homo sapiens, UniProt O75323)` — result for cross-linked residues: “K281 to K143” (NIPSNAP1 (Homo sapiens, UniProt Q9BPW8); cross-linking MS; cells; with: BSPNO).
